Results pooled from the literature.
In brackets after ≈: the same amount, converted by molar mass.

Structure (SMILES) | organism | assay | system | conditions | how to read | quantity | result
Cc1ccc(-c2cc(NCCc3ccc(C(F)(F)F)cc3)n3cnnc3n2)o1 | Mycobacterium tuberculosis | bacterial growth | – | – | – | IC90 | 7900 nM
NC(=S)NN=Cc1ccc(OC(=O)CN2C(=O)CSC2=O)c(Br)c1 | Mycobacterium tuberculosis | Alamar blue | MDR 210 | – | – | MIC | 74.2 µM (≈ 32 µg/mL)
CO[C@H]1/C=C/O[C@@]2(C)Oc3c(C)c(O)c4c(O)c(c(/C=N/N5CCN(C)CC5)c(O)c4c3C2=O)NC(=O)/C(C)=C\C=C\[C@H](C)[C@H](O)[C@@H](C)[C@@H](O)[C@@H](C)[C@H](OC(C)=O)[C@@H]1C | Mycobacterium tuberculosis | – | – | 10 x MIC | – | resistance mutation frequency | 1.06e-07 mutants per cell
[Ca+2] | Halyomorpha halys | outward current, inhibitor, electrophysiology | – | concentration not given | – | inhibition | 21.3%
O=[N+]([O-])c1cn2c(n1)OC[C@@H](OCc1ccc(OC(F)(F)F)cc1)C2 | Mycobacterium tuberculosis | MABA | Erdman wild type | – | – | IC50 | 148 nM
CCOc1cc(C=NNC(N)=S)ccc1OC(=O)CN1C(=O)CSC1=O | Mycobacterium tuberculosis | Alamar blue | MDR 210 | – | – | MIC | 80.7 µM (≈ 32 µg/mL)
O=C(Cc1ccccc1)Nc1cc(-c2ccccn2)nc2nncn12 | Mycobacterium tuberculosis | bacterial growth | – | – | – | IC90 | > 100000 nM
CCCCCCC#Cc1cncc(-c2nnc(SCc3cc([N+](=O)[O-])cc([N+](=O)[O-])c3)n2C)c1 | Mycobacterium tuberculosis | MABA | Erdman wild type | – | – | IC50 | 310 nM
NNC(=O)c1ccncc1 | Mycobacterium tuberculosis | time-kill | H37Rv | concentration not given, 120 h | – | CFU reduction | 4 log10 CFU
NNC(=O)c1ccncc1 | Mycobacterium tuberculosis | – | H37Rv inhA M103I mutant | concentration not given | relative to: wild type H37Rv | MIC fold change | 1 fold
NC(=S)NN=Cc1ccc(OC(=O)CN2C(=O)CSC2=O)cc1 | Mycobacterium tuberculosis | Alamar blue | MDR 210 | – | – | MIC | 45.4 µM (≈ 16 µg/mL)
CO[C@H]1/C=C/O[C@@]2(C)Oc3c(C)c(O)c4c(O)c(c(/C=N/N5CCN(C)CC5)c(O)c4c3C2=O)NC(=O)/C(C)=C\C=C\[C@H](C)[C@H](O)[C@@H](C)[C@@H](O)[C@@H](C)[C@H](OC(C)=O)[C@@H]1C | Mycobacterium tuberculosis | – | H37Rv inhA G96V mutant | concentration not given | relative to: wild type H37Rv | MIC fold change | 1 fold
[H]/N=C(/N)N[C@H]1[C@H](O)[C@@H](O)[C@H](O[C@@H]2O[C@@H](C)[C@](O)(C=O)[C@H]2O[C@@H]2O[C@@H](CO)[C@H](O)[C@@H](O)[C@@H]2NC)[C@@H](N/C(N)=N\[H])[C@@H]1O | Mycobacterium tuberculosis | Alamar blue | MDR 210 | – | – | MIC | 1.72 µM (≈ 1 µg/mL)
CS(=O)(=O)Nc1ncn(-c2cc(F)c(COc3ccc(OS(=O)(=O)F)cc3)c(F)c2)n1 | Mycobacterium tuberculosis | – | H37Rv pks13 knockdown | – | relative to: non-depleted strain | susceptibility fold increase | 11 fold

Repeated from above:
Structure (SMILES) | organism | assay | system | conditions | how to read | quantity | result
CO[C@H]1/C=C/O[C@@]2(C)Oc3c(C)c(O)c4c(O)c(c(/C=N/N5CCN(C)CC5)c(O)c4c3C2=O)NC(=O)/C(C)=C\C=C\[C@H](C)[C@H](O)[C@@H](C)[C@@H](O)[C@@H](C)[C@H](OC(C)=O)[C@@H]1C | Mycobacterium tuberculosis | – | H37Rv inhA G96V mutant | concentration not given | relative to: wild type H37Rv | MIC fold change | 1 fold
